Assay results of several laboratories.
Each numbered part is a random draw from the data of one study; scales do not carry over between parts. Positions count from the first letter of the parent shown.

Set 1
Target: Sal-like protein 4, full length isoform B (SALL4, Homo sapiens, UniProt Q9UJQ4-2, residues 1-616)
Method: universal PBM
Form: double-stranded DNA, one strand shown
Medium: in vitro
Concentration: not given
Setting: 8-mer, flanks averaged, mean of replicates
Reading: higher = stronger binding
Measurement: E-score
Construct (chain): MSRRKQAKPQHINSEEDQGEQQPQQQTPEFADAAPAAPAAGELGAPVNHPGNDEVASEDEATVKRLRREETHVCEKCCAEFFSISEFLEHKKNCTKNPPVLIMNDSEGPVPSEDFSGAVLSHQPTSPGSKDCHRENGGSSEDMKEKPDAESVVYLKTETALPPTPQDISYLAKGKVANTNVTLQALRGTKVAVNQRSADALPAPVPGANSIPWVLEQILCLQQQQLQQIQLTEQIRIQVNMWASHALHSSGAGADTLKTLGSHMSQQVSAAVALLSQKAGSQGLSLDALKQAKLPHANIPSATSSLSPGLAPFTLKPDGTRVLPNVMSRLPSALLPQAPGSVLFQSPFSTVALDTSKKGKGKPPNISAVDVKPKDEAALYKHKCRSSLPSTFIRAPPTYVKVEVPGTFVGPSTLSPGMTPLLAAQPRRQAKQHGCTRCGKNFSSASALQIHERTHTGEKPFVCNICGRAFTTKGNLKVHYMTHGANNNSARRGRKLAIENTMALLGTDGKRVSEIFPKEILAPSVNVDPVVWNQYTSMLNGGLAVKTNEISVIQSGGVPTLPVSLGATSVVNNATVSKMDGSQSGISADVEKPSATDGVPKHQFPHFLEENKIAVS
GTTCCAAA: 0.0912
CAATAGAG: 0.112
GTGCCAGA: -0.168
ACTTGCAA: 0.228
ACCAACAA: 0.0599
CAGGACAG: -0.184
ACCTGGAG: -0.081
AAGGGTGG: -0.0641
CCACCTTA: 0.00623
AGCTATCA: 0.0851
CTTCATTA: 0.307
GGGGCGAA: -0.188
ACGCGAAG: -0.0737
GGCATGCA: -0.0482
GACGTCAA: 0.0345
CAGGGCAA: -0.107
ACCCGAGT: -0.268
GAACTAAA: 0.0675
CACCCTGA: -0.114
CCTACCGC: -0.282
ATGAGCAA: 0.139

Set 2
Target: Histone acetyltransferase KAT6A, both winged helices, GST fusion (KAT6A, Homo sapiens, UniProt Q92794, residues 1-181)
Method: protein binding microarray
Form: double-stranded DNA, one strand shown
Medium: in vitro
Concentration: not given
Setting: 8-mer, flanks averaged, mean of 2 arrays, mostly near background
Reference: not given
Reading: higher = stronger binding
Measurement: E-score
Residues (chain): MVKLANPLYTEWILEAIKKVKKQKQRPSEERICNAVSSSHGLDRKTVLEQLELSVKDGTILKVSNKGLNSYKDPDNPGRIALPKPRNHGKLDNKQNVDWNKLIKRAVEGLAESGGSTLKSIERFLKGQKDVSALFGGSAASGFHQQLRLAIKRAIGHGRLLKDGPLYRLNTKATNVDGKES
ATCTATTC: -0.112
CAGTCGAA: 0.000655
ATCTGGAC: -0.0965
GACCTAAA: 0.00263
CCCAAATA: -0.258
TCGAGTAA: -0.172
AATCGTGA: -0.0451
GTAGGACA: -0.0932
CATGCACA: -0.104
AAGCTTAG: -0.168
TCATACCA: -0.0865
CAAAGTTG: -0.0674
GTGGGAAC: -0.097
GCTCATCA: -0.0706
CTCCAGAA: -0.082
CCGTGCAG: 0.13
ATTGAACG: 0.0169
AGCCGACA: 0.0699
CGGAGAAG: -0.00893
AAAGCCGC: 0.298
GTGCCGGA: 0.143
ATACCCCC: -0.0771
AGGATTTG: -0.239
AGCTGAAT: -0.126
GTGGGCGA: -0.0757

Set 3
Target: Ras GTPase-activating protein-binding protein 1, full length (G3BP1, Homo sapiens, UniProt Q13283)
Sequence of UniProt Q13283 (whole entry, looked up): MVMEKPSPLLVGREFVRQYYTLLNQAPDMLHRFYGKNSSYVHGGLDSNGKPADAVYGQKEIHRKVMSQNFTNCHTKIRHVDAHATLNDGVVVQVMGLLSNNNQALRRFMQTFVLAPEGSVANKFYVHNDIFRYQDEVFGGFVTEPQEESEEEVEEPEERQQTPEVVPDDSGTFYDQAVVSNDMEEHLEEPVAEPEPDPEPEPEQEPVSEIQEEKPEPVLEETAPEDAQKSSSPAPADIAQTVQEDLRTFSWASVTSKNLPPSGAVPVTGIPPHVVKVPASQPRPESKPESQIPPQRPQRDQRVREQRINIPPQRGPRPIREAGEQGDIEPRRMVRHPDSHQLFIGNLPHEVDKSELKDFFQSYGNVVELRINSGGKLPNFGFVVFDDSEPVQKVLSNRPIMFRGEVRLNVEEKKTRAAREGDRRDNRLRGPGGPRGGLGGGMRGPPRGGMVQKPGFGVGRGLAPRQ
Method: RNA Bind-n-Seq
Form: RNA
Medium: in vitro
Concentration: 200 nM
Setting: whole 134-nt RNA, ends assumed
With: 150 mM LiCl
Reference: input library
Reading: higher = stronger binding
Measurement: log2 enrichment
Library: 7-deaza-guanosine replaces G
Shared flanks, not repeated: GGGAGUUCUACAGUCCGACGAUC … UGGAAUUCUCGGGUGUCAAGG
AAGUCCUGUGCUACACAUCGUAUGUACCGAAUCGGGAAAAAGGGUUUGGGUUUGGGAAAGUAUUAUGUUACGCCGUUCGGAUCUGCACUU: -1.59
UUCUGCACCUCUGCUACCUAAAGAAGACCCAAUCUUCACAUAUUUAUCUAAACGGUUAGGAAGGAGUAUAGAUGACAUAGGUCACCUCAU: -0.318
ACCAUGCAGGUGGGCAUCUUUGGGAAGUGGGGCAAGGGGGGGAUAGGGAGGGGGGUAACACUUUGGGAACAGGUGGUCCAAAGUCGUUUC: 0.17
CCUCAAGUCCUGUGCUACACAUCGUAUGUACCGAAUCGGGGAGGAGGGAGGGGAAAGUAUUAUGUUACGCCGUUCGGAUCUGCACUUCCA: 0.078
CUGUGCUACACAUCGUAUGUACCGAAUCGGGGAAAAAAAGGGGAAAAAAAGGGGAAAGGGGAAAGUAUUAUGUUACGCCGUUCGGAUCUG: 0.427
UCCUGUGCUACACAUCGUAUGUACCGAAUCGGGAAAAAAGGGGAAAAAAGGAAAAAAGGAAAGUAUUAUGUUACGCCGUUCGGAUCUGCA: -0.0871
ACCAUGCAGGUGGGCCUCUUUGGGAAGUGGGGCAAGGGGGGGAUAGGGAGGGGGGUAACACUUUGGGAACAGGUGGUCCCAGGUCGUUUC: -0.11
CCUCACCACUCCUUUCUCUUUCAUUCAGUUCCGCUCAGUGGACGAGACUACCCAGGCUAUGGCCUUUGAUGGCAUCAUCUUCCAGGGCCA: 1.49
CUCAAGUCCUGUGCUACACAUCGUAUGUACCGAAUCGGAAGGGGAAGGGAAGGGAAAGUAUUAUGUUACGCCGUUCGGAUCUGCACUUCC: -0.0129
CUCAAGUCCUGUGCUACACAUCGUAUGUACCGAAUCGGAAAGGUUUGGAAAGGAAAGUAUUAUGUUACGCCGUUCGGAUCUGCACUUCCA: 0.19
CUCAAGUCCUGUGCUACACAUCGUAUGUACCGAAUCGGUGGGGUGGGGUGGGGAAAGUAUUAUGUUACGCCGUUCGGAUCUGCACUUCCA: -0.0529

Set 4
Target: ABI1, truncated, D143A, DHFR fusion (Arabidopsis thaliana)
Method: DHFR PCA, deep sequencing
Medium: yeast
Setting: methotrexate growth selection, single substitutions
With: (+)-ABA 0.11 µM
Reference: wild-type fitted maximum
Reading: higher = stronger binding
Measurement: relative binding score
Parent: PYL1, truncated, DHFR fusion (Arabidopsis thaliana); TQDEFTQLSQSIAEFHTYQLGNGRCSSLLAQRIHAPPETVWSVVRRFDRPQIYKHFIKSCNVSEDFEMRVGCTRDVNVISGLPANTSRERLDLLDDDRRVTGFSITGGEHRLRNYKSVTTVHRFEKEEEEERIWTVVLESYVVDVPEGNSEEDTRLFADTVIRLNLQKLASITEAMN
E130D: 49.6%
E14R: 7.56%
T86Q: 11.3%
T160V: -0.00771%
E125Q: 46.3%
T154E: 0.937%
G23H: 10.1%
L94M: 14.1%
F66M: 11%
F157S: 6.03%
Q7S: 33.4%
C60I: 3.28%
S80F: 60%
V143A: 7.04%
T73S: 8.93%
I57R: -0.423%

Set 5
Target: ATF3, bZIP domain (human)
Method: DHFR protein complementation
Medium: yeast
Setting: single substitutions, most at no-binding floor
Reference: wild-type JUN-FOS pair
Reading: higher = stronger binding
Measurement: binding fitness
Parent: JUN, bZIP domain (human); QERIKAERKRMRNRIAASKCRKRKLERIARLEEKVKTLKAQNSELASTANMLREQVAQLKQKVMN; partner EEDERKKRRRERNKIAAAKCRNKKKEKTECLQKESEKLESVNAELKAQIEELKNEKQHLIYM
N42R: -0.373 natural log
A29Y: -0.278 natural log
E54M: -0.172 natural log
L45R: -1.3 natural log
A57K: -0.14 natural log
L45K: -1.39 natural log
I28R: -0.0744 natural log
K34T: -0.25 natural log
K36P: -1.28 natural log
E44V: -0.124 natural log
A40R: -0.0689 natural log
E44N: -0.362 natural log
Q41N: -0.365 natural log
A57P: -1.37 natural log
I28M: -0.0487 natural log
A29R: -0.157 natural log
Q41L: -0.288 natural log
I28K: -0.185 natural log
T48G: -0.914 natural log
S43H: -0.0478 natural log
S47E: 0.0473 natural log
E32P: -0.895 natural log
K36R: -0.0165 natural log
N42S: -0.477 natural log
A57N: -0.0893 natural log

Set 6
Target: CCND2, cyclin fold, Cln2 fusion (human)
Method: yeast growth competition, sequencing
Medium: yeast
Setting: weak parent motif
Reference: not given
Reading: higher = stronger binding
Measurement: normalised enrichment score
Parent: WEE1 docking peptide (human); HKTFRKLRLFDTP
F4K: -0.0277
L9K: 0.413
D11Y: -0.18
T12A: -0.00147
K6L: 0.197
H1Y: -0.0606
P13G: -0.111
T3A: -0.111
L9I: 0.428
T12F: 0.53
R5P: -0.352
R5A: -0.596
H1D: 0.321
T3Y: -1.01
P13S: 0.274
L9T: -0.178
L9P: -0.145
T3Q: -0.14
T12V: 0.479
R5S: -0.454
L7F: 0.0245
P13H: -0.201
K6P: 0.118
R5Y: -0.403
R8L: 0.00704

A few entries again (set 2):
CAAAGTTG: -0.0674
GTGGGAAC: -0.097
GCTCATCA: -0.0706
CTCCAGAA: -0.082
CCGTGCAG: 0.13
ATTGAACG: 0.0169
AGCCGACA: 0.0699
CGGAGAAG: -0.00893
AAAGCCGC: 0.298
